Measurements gathered from unrelated publications.
Each line is one published result; not all experiments were run side by side. ± marks the error that the study gave.

Compound | cell line | test | conditions | scale | measurement | value
Cc1cc(/C=C/C#N)cc(C)c1Oc1nc(NC2CCN(Cc3ccc(S(C)(=O)=O)cc3)CC2)nc2ncccc12 | TZM-bl | cell growth or viability, XTT | 96 h |  | CC50 | 14.2 µM
CCCC[C@H](NC(=O)[C@H](CC(=O)O)NC(=O)[C@H](CC(=O)O)NC(=O)[C@H](CCC(=O)O)NC(=O)[C@H](Cc1ccc(O)cc1)NC(=O)[C@H](CC(=O)O)NC(=O)[C@H](CC(=O)O)NC(=O)[C@H](CCC(=O)O)NC(=O)[C@H](CC(C)C)NC(=O)[C@H](CCC(=O)O)NC(=O)[C@H](CCC(=O)O)NC(=O)c1ccc2c(c1)C1(OC2=O)c2ccc(O)cc2Oc2cc(O)ccc21)C(=O)N[C@@H](CCC(=O)O)C(=O)N[C@@H](CCC(=O)O)C(N)=O | BEAS-2B | CE-LIF | 60 s, single cells |  | degradation | 2 to 3%
O=C(CCl)Sc1nnc(-c2n[nH]c(=O)c3ccccc23)o1 | HepG2 | qRT-PCR, item: CDK1 | IC50, 8 h | reference: untreated | mRNA level | 1.04 ± 0.25 fold
CC/C(=C(\c1ccc(O)cc1)c1ccc(OCCN(C)CCOCCOCCOCCOCCN(C)CCOc2ccc(/C(=C(/CC)c3ccccc3)c3ccc(O)cc3)cc2)cc1)c1ccccc1 | U2OS transfected with ERβ |  | 10 µM, cytotoxicity |  | cell density | 59%
CC1OC(Oc2c(-c3ccc(O)cc3)oc3cc(O)cc(O)c3c2=O)C(OC(=O)C=Cc2ccc(O)cc2)C(O)C1OC(=O)C=Cc1ccc(O)cc1 (stereo not shown) | human liver cancer cells | cell growth | 48 h |  | IC50 | > 10 µM
CC(=O)[O-].CN1CCN2CCN(CC1)CCN(Cc1ccccc1)CC2.F[P-](F)(F)(F)(F)F.[Cu+2] | THP-1 | cell growth or viability |  |  | IC50 | > 20 µM
CC(=O)OC[C@H]1O[C@@H](Sc2sc(C(=O)c3ccc(Cl)cc3)c(N)c2-c2nc3ccccc3s2)[C@H](OC(C)=O)[C@@H](OC(C)=O)[C@H]1OC(C)=O | HEp-2 | cytotoxicity | 72 h |  | maximum non-toxic concentration | 90 µg/mL
CC(C)=C1CC[C@]2(COC(=O)c3ccccc3)[C@@H](OC(=O)c3ccccc3)/C=C(\C)CC[C@@H]3O[C@@]3(C)C[C@@H](OC(=O)c3cccnc3)[C@@H]12 | HepG2 | cell growth or viability, CCK-8 | 50 µM, 24 h |  | viability | 87.7%
C=CC(=O)Nc1cc(Nc2ncnc(Nc3cc(Cl)c(F)cc3C(C)(C)O)n2)c(OC)cc1N1CCC(N(C)C)C1 (stereo not shown) | human hepatocytes |  |  |  | CLint | 2.8 (µL/min)/(10⁶ cells)
Nc1ccn([C@@H]2O[C@H](CO)[C@@H](O)[C@H]2F)c(=O)n1 | SkMC | sulforhodamine B | 11 days, glucose medium |  | CC50 | > 250 µM
O=c1[nH]cc(C(c2cccc(C(F)(F)F)c2)c2c[nH]c(=O)[nH]c2=O)c(=O)[nH]1 | Ba/F3 |  | 1 µg/mL |  | cytotoxicity | not toxic
O=c1ccn([C@@H]2O[C@H](CO)[C@@H](O)[C@H]2F)c(=O)[nH]1 | SNB-78 | sulforhodamine B | 11 days, galactose medium |  | CC50 | > 250 µM
COc1cc(O)cc(CCc2cc(Cl)ccc2O)c1 | LS174T 5-FU-resistant | SRB | 5 µM, 24 h pretreatment, together with: 5-fluorouracil 72 h |  | sensitization to 5-fluorouracil | 3 fold
CC(=O)N[C@H](C(=O)N[C@H](C(=O)N[C@@H](CCCNC(=N)N)C(=O)N1Cc2ccccc2C[C@H]1C(=O)N[C@@H](Cc1ccccc1)C(N)=O)C1CCCCC1)C(C)C | human PBMC | Bio-Plex multiplex, item: IFN-g | 500 µg/mL, 24 h |  | cytokine level | 26.9 ± 6.2 pg/mL
[99Tc+].[C-]#[N+]CC(C)(C)OC.[C-]#[N+]CC(C)(C)OC.[C-]#[N+]CC(C)(C)OC.[C-]#[N+]CC(C)(C)OC.[C-]#[N+]CC(C)(C)OC.[C-]#[N+]CC(C)(C)OC | rat sandwich-cultured hepatocytes |  | 20 min, culture day 4 | reference: preloaded amount | canalicular efflux | 23.6 ± 3.4%
COc1ccccc1NC(=O)OC1C(C)C(OC)C=COC2(C)Oc3c(C)c(O)c4c(c3C2=O)C2=NC3(CCN(CC(C)C)CC3)NC2=C(NC(=O)C(C)=CC=CC(C)C(O)C(C)C(O)C1C)C4=O (stereo not shown) | THP-1 derived macrophages |  |  | reference: intracellular over extracellular | intracellular/extracellular ratio | 140
Cc1cc(C#N)cc(C)c1Oc1nc(NC2CCN(Cc3cccc(Cl)c3)CC2)nc2ccccc12 | TZM-bl | cell growth or viability, XTT |  |  | CC50 | > 0.251 µM
[Cl-].[Cl-].[Mn+2].c1ccc(CN2CCCNCCN(Cc3ccccc3)CCCNCC2)cc1 | THP-1 | cell growth or viability |  |  | IC50 | > 19 µM
CCCCCCCO[C@@H]1O[C@H](CO)[C@@H](O[C@H]2O[C@H](CO)[C@@H](O)[C@H](O)[C@H]2O)[C@H](O)[C@H]1O | B16-F10 | cytotoxicity, MTT | 24 h |  | EC50 | > 250 µM

Some of these lines once more:
Compound | cell line | test | conditions | scale | measurement | value
CC(=O)[O-].CN1CCN2CCN(CC1)CCN(Cc1ccccc1)CC2.F[P-](F)(F)(F)(F)F.[Cu+2] | THP-1 | cell growth or viability |  |  | IC50 | > 20 µM
Nc1ccn([C@@H]2O[C@H](CO)[C@@H](O)[C@H]2F)c(=O)n1 | SkMC | sulforhodamine B | 11 days, glucose medium |  | CC50 | > 250 µM
